Measured values of several laboratories.
Every numbered part comes from another study and shows a few of its results, in no order. Values joined by “and” are separate records of one study, mostly repeats; a detail may differ. Changes are numbered by the printed parent chain.
UniProt P31751, sequence (whole entry, looked up): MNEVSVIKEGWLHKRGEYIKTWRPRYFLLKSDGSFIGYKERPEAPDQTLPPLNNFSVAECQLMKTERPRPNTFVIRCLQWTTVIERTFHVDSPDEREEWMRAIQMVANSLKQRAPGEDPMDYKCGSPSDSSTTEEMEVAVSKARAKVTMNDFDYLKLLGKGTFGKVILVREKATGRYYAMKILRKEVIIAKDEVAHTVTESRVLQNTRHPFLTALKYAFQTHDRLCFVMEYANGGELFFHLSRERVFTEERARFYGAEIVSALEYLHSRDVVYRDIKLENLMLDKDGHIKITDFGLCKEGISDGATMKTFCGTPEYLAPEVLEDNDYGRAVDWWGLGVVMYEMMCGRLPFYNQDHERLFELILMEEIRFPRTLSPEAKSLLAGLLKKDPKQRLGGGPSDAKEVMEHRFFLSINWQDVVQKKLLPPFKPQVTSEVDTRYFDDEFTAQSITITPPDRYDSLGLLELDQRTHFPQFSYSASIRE
UniProt P42336, sequence (whole entry, looked up): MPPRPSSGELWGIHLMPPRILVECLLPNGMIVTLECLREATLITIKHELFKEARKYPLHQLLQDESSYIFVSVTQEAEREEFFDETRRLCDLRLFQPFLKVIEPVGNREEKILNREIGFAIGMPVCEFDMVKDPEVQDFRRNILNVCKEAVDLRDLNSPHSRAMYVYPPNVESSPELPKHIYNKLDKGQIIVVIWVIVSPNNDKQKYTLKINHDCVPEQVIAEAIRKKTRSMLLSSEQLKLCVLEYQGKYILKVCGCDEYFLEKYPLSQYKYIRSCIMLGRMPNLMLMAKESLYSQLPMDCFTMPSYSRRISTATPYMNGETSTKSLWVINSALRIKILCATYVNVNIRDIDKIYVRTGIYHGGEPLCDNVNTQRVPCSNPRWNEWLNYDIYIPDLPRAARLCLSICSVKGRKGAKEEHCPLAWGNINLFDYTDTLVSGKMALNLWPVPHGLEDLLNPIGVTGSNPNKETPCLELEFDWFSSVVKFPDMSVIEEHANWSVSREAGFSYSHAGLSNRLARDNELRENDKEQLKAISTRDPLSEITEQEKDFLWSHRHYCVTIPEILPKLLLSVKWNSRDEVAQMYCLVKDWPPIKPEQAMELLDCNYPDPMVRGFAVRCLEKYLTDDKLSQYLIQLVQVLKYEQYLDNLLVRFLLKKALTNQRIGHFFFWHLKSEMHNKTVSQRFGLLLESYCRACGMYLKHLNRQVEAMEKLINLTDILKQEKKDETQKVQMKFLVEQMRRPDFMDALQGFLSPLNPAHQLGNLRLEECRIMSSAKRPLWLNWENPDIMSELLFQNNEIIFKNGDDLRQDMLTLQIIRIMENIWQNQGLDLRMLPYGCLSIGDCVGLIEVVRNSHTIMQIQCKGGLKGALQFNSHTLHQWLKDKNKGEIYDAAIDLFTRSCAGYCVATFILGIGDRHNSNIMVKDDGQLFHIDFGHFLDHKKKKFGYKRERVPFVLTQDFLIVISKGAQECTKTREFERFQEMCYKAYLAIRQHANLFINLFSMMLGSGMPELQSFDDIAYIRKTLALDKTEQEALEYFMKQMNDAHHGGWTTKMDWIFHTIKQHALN

Series 1
Target: Hepatocyte nuclear factor 3-alpha (Foxa1, Mus musculus, UniProt P35582, residues 1-468, full length assumed)
UniProt P35582, sequence (whole entry, looked up): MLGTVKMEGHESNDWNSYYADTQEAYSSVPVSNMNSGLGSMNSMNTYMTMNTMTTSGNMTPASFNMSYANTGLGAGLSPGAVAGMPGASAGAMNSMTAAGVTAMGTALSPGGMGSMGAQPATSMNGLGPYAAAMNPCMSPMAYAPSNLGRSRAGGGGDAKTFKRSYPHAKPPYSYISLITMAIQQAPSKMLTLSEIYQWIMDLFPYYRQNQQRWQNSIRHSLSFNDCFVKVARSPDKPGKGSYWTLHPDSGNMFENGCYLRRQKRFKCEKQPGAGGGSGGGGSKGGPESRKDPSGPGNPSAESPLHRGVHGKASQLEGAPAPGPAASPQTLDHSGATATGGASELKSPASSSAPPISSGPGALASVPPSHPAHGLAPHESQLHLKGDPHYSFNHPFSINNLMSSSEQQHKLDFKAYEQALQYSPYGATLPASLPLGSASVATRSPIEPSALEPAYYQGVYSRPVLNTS
Technique: EMSA with sequencing
Molecule type: double-stranded DNA, one strand shown
Matrix: in vitro
Concentration: 10 and 20 nM
Setting: whole designed probe, mean of two concentrations, ends assumed
Relative to: negative control set to 0
Direction: higher = stronger binding
Shared flanks, not repeated: GTGAGCGGTGCCCATTGATGGGGAAC … TTTCACTGGGATCGTGGGGAC
Strand | normalised bound fraction
CAGGAGCCTAGCCCTGTCTTTCCTCTGAGAGAAATGGTTTAGTACTTGCTAATTCCATGTTTCTGGCAACTTTATAGAACATAACTCCACAAAGTAAACAAGAATTGATTGTAATTCACTGACAGCTCACAAATCTCCATTCCAGAGAGACTTTCCCTGACTTCTGTATTTAAAGCAGCACGACCCCTCCCCT | 0.447 ratio
GGAATACCCCTTTGATTTTACTGGTGACGTATACCCACTAGTGTACTGAGACGGAAAAAAAAGTCTTTAGAACTCAGATAAATATACAGTTCATATTTACTATTTATGTATGTGTGATCTCATTATTAAATTACTCTATCATGTTTGTGGAATTAGCAGTTTCTCTTTGAATTTGGATGTTTCTAGTTATGTG | 0.109 ratio
ATCTAGTTCCAGTCTTAGCTTGGCAATTTCTTCCCGCAACATGCTGTTTTCACGCAAGAGATCTTCTTCTTTCTTATGACTAAGAGAAAGCTAAGTAATCTAAGGGAACTTTTAGTTAGCACTCAATAGAATGACATATCATGATTTCTTCTAAAATCAAAGAATGACATTTATATTTGTATAATGAAATAAT | 0.213 ratio
CTTGCTTACTGCTAGCACAGCAGTCTGAGATGCATCTGCGAGGCGGCAGCCTGGCTGGGGGAGGGGTATCCGCGTTTGCTGAGGCTTGAGTAGGTAAACAAAGCAGCCAGGAAGCTCGAACTGGGCGGAGCCCACCTCAGCTCAACAACGCCTACTGCCTCTAGACTCCACCTCTGTGGGCAGGGCACAGCTG | 0.41 ratio
ATCTTCCCCCTCTTCCTTGCCCCACCAGCTCACCTTCCCGGGTTATTTGCACAAAGGAAAATAAATAAAGCCGGCATTCGTTAACCCTCTTCTGGCGCAAACTGCTGTTTGCTCTGGATCTAACATGGTCCTTTGGCGAGGCGTGGCTCCGGGAGAGCAAAGCACCGTGTCAGGGCCATGATCCGGGCTCGCC | 0.368 ratio

Series 2
Target: Transcriptional repressor CTCF (CTCF, Homo sapiens, UniProt P49711, residues 1-727, full length assumed)
Technique: protein-binding microarray
Molecule type: double-stranded DNA, one strand shown
Matrix: in vitro
Concentration: not given
Setting: k-mer, scored over probes, only values ≥0.25
Direction: higher = stronger binding
Residues (chain): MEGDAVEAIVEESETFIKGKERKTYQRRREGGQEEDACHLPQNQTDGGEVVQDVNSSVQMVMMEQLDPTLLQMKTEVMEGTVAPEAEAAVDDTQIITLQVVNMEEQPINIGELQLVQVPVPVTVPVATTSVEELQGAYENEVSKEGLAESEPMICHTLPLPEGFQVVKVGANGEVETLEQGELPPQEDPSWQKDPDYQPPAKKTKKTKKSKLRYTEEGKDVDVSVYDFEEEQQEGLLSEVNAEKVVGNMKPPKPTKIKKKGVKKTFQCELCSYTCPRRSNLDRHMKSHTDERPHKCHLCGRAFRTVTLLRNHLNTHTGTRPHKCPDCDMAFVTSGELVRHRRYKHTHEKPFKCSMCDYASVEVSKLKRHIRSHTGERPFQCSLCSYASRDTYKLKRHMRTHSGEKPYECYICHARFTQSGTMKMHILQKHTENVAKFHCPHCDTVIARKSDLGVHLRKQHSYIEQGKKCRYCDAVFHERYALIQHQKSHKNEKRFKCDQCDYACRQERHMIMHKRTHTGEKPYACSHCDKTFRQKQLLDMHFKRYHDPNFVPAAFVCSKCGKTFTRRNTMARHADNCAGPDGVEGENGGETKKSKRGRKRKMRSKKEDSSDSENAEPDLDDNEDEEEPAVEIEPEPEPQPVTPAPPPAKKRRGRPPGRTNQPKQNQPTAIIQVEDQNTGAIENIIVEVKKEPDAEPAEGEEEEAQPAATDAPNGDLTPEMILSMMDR
Strand | E-score
AAAATTAC | 0.253
TAAAAACA | 0.289
CGTTATTA | 0.278
ATGCACAT | 0.284
ACATAAAT | 0.288
CATGGCGC | 0.333
AATGTAAG | 0.255
ATCACATA | 0.271

Series 3
Target: CCNA1, cyclin fold, Cln2 fusion (human)
Technique: yeast growth competition, sequencing
Matrix: yeast
Setting: weak parent motif
Relative to: not given
Direction: higher = stronger binding
Starting sequence: viral docking peptide; KGVKRKLFAEDSS
Change | normalised enrichment score
KGVKRLLFAEDSS [K6L] | 0.307
KGVKRKLFAEVSS [D11V] | 0.684
KGVKYKLFAEDSS [R5Y] | -0.00711
KGVKRKLFAKDSS [E10K] | 0.165
KGVKCKLFAEDSS [R5C] | 0.633
KGVHRKLFAEDSS [K4H] | 0.589
KGVKRKLFHEDSS [A9H] | 0.714
KDVKRKLFAEDSS [G2D] | 1.27
KGVKRKLFAWDSS [E10W] | -0.266
KGVKRKMFAEDSS [L7M] | 0.358
KEVKRKLFAEDSS [G2E] | 0.973
KGVKRKLFFEDSS [A9F] | 0.939
KGRKRKLFAEDSS [V3R] | 0.642

Mixed results
SMILES | target | observed | technique | matrix | concentration | quantity | result
C=CC(=O)Nc1ccc2[nH]c(=O)n(C3CCN(Cc4ccc(-c5ccc6c(c5)NC(=O)CO6)cc4)CC3)c2c1 | RAC-beta serine/threonine-protein kinase (AKT2, Homo sapiens, UniProt P31751) | target engagement | NanoBRET | live cells |  | EC50 | 5.76 µM and 6.05 µM and 2.62 µM
Cn1cncc1[C@@](O)(COc1ccc(C#N)cc1-c1ccc(OC(F)(F)F)cc1)c1ccc(C#N)cc1 | Phosphatidylinositol 4,5-bisphosphate 3-kinase catalytic subunit alpha isoform (PIK3CA, Homo sapiens, UniProt P42336) | cell-free assay | competition with immobilised ligand |  | 1 µM | remaining binding | 72%

Some of these lines once more (series 3):
Change | normalised enrichment score
KGVKRKLFAWDSS [E10W] | -0.266
KGVKRKLFAKDSS [E10K] | 0.165
KEVKRKLFAEDSS [G2E] | 0.973
KGVKYKLFAEDSS [R5Y] | -0.00711
KGVKRLLFAEDSS [K6L] | 0.307
